Measurements gathered from unrelated publications.
Numbered parts are unrelated; each lists some results of a single study. Substitutions count along the parent as printed.
UniProt Q9Y6M4, sequence (whole entry, looked up): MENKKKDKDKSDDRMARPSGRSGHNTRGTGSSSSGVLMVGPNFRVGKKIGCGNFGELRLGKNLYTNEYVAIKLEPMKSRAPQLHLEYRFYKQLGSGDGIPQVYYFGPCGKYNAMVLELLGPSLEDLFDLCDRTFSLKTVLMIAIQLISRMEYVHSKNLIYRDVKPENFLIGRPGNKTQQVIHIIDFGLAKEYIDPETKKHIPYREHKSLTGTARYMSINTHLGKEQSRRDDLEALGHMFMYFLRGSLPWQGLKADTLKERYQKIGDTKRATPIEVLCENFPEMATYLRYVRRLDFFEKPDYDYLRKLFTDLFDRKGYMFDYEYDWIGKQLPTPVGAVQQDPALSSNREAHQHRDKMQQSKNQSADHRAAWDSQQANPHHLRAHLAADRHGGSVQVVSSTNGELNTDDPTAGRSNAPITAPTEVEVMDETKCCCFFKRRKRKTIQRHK
UniProt P42336, sequence (whole entry, unmodified, looked up): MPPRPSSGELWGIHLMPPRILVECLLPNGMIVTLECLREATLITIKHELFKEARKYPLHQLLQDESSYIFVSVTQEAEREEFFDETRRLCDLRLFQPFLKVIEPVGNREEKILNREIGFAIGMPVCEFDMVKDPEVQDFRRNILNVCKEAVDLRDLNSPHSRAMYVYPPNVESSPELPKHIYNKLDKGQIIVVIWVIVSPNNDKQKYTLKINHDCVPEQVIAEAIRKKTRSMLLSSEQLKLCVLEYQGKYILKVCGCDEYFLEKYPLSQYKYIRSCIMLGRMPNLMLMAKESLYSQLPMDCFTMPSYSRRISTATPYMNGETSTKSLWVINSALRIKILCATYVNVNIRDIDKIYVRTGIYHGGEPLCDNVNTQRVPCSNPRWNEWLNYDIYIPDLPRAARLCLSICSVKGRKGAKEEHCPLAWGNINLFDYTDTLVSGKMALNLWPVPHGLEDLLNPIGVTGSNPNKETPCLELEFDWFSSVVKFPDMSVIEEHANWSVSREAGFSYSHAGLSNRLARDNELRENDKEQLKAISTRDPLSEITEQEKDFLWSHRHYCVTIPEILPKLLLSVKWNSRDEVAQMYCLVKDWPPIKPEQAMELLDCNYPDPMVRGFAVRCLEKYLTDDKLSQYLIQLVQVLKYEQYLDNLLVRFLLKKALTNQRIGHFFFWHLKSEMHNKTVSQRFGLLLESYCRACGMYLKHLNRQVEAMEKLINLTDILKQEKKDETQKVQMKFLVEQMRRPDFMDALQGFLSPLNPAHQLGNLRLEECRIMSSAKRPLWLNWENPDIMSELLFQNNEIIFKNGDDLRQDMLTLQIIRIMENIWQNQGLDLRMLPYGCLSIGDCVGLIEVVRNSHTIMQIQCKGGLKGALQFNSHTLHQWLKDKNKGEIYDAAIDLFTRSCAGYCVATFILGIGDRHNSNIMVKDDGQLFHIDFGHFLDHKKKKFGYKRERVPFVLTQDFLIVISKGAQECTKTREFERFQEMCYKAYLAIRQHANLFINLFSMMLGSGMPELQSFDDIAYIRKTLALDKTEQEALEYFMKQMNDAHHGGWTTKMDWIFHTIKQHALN
UniProt P29320, sequence (whole entry, looked up): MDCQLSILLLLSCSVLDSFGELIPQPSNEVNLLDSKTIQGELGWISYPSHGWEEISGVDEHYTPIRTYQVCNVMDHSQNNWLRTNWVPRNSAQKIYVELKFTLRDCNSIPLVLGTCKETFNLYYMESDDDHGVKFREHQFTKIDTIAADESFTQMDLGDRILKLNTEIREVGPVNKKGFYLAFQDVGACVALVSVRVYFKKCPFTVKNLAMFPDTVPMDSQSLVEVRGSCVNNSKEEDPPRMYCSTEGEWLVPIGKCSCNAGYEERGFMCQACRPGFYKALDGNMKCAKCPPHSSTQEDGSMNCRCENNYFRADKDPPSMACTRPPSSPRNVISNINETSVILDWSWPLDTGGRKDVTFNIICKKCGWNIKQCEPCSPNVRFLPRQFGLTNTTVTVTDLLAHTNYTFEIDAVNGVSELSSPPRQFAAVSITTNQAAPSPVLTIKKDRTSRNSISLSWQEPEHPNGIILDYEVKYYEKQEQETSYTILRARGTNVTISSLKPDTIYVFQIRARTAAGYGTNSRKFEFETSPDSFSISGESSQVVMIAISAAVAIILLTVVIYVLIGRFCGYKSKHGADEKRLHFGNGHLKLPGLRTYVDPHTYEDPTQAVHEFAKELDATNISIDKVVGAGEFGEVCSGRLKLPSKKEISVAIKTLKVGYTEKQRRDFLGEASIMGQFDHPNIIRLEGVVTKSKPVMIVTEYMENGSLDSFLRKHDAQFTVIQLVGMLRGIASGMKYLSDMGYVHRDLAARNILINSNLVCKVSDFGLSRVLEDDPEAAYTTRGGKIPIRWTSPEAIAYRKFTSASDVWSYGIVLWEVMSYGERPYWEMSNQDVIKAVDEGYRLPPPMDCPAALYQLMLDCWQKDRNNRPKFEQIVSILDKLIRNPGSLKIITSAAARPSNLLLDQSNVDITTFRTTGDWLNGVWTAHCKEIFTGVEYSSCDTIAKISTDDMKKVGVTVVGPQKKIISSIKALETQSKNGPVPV
UniProt Q9UHD2, sequence (whole entry, looked up): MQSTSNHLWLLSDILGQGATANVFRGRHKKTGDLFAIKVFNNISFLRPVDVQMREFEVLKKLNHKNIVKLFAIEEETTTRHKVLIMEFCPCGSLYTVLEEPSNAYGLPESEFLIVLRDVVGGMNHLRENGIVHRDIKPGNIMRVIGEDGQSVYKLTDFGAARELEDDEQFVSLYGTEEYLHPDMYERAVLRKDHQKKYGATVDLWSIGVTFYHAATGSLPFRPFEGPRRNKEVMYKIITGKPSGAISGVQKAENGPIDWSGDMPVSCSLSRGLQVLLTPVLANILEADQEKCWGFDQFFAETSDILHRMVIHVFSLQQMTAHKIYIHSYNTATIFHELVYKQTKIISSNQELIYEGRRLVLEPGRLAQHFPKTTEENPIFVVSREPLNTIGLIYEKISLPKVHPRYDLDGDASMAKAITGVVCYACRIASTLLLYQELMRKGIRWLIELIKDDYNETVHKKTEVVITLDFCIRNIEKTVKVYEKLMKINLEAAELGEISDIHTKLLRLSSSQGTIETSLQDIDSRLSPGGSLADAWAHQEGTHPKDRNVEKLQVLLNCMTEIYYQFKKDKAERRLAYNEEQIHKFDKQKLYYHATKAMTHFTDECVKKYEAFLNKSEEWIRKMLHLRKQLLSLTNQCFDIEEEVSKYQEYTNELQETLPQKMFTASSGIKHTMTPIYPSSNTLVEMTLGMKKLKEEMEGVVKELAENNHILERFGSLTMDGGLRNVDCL
UniProt Q13705, sequence (whole entry, looked up): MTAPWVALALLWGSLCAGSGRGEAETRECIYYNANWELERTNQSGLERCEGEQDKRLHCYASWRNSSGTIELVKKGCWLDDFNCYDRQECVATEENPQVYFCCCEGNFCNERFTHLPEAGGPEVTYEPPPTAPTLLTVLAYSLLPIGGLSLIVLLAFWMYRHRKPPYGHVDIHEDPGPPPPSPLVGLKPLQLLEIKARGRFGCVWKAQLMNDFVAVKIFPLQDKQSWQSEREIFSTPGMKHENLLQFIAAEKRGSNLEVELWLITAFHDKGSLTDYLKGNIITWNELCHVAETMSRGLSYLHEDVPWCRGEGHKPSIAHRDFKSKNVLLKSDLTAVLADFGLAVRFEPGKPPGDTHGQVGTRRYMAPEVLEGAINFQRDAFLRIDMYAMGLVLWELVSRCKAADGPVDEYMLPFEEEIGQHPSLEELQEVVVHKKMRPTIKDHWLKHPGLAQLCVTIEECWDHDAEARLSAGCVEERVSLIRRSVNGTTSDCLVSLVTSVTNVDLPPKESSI
UniProt P36896, sequence (whole entry, looked up): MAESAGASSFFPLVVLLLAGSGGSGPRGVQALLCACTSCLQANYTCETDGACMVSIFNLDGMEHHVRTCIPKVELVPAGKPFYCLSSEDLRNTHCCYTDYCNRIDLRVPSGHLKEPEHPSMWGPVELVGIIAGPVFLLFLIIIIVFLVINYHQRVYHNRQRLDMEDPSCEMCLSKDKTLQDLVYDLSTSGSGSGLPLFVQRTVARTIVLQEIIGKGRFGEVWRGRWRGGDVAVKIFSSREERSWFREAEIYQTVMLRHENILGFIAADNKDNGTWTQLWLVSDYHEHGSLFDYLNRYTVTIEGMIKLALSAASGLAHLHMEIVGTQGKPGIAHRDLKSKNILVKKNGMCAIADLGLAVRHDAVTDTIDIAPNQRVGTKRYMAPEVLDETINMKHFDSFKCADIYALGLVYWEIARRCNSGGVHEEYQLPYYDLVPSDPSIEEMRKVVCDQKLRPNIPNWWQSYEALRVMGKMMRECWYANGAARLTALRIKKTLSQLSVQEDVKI
UniProt P32298, sequence (whole entry, looked up): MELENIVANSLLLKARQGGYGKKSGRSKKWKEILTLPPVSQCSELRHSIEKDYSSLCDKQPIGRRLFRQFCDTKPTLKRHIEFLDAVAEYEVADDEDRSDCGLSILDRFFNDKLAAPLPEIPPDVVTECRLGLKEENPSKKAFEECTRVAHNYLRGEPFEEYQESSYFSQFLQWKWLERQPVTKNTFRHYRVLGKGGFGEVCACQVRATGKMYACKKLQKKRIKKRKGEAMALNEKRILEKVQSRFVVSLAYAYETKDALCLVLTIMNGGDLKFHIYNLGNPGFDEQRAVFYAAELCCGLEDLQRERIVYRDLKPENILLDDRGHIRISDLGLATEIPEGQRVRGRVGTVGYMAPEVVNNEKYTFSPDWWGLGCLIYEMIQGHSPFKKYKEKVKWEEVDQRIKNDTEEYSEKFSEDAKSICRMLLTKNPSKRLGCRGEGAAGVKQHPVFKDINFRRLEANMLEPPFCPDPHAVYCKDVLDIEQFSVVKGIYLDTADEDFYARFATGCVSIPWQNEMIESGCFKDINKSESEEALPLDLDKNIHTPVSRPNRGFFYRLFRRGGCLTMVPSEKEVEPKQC

Set 1
Target: CCND2, cyclin fold, Cln2 fusion (human)
Technique: yeast growth competition, sequencing
Medium: yeast
Notes: weak parent motif
Relative to: not given
Reading: higher = stronger binding
Starting sequence: RB1 docking peptide (human); PKPLKKLRFDIEG
Change	normalised enrichment score
PKPLKKLRFDTEG [I11T]	-0.166
PKPLKKLRFRIEG [D10R]	0.602
PKPLKKLRFDMEG [I11M]	0.0207
PKPLKKLRFDIDG [E12D]	0.181
PKPLAKARFDIEG [K5A L7A]	-0.128
PKPLKCLRFDIEG [K6C]	0.313
PKPLKKLTFDIEG [R8T]	0.436
PKPLKKLRFGIEG [D10G]	1.04

Set 2
Compound: CCC(=O)N[C@@H]1CC[C@H](C(=O)N(C)c2ccc(-c3nc4ccccc4o3)cc2)C1
Observed: cell-free assay
Technique: competition with immobilised ligand
Concentration: 1 µM
target	remaining binding [%]
PIK3CA (Homo sapiens, UniProt P42336, H1047Y)	100
GRK4 (Homo sapiens, UniProt P32298)	100
MAP3K15 (Homo sapiens, UniProt Q6ZN16)	100
ACVR2B (Homo sapiens, UniProt Q13705)	96

Set 3
Target: Fragile X messenger ribonucleoprotein 1, C-terminal low-complexity region (Fmr1, Mus musculus, UniProt P35922)
Technique: RNA Bind-n-Seq
Form: RNA
Medium: in vitro
Concentration: 200 nM
Notes: whole 134-nt RNA, ends assumed
With: 150 mM KCl
Relative to: input library
Reading: higher = stronger binding
All sequences stand within: GGGAGUUCUACAGUCCGACGAUC … UGGAAUUCUCGGGUGUCAAGG
Strand	log2 enrichment
CUCAAGUCCUGUGCUACACAUCGUAUGUACCGAAUCGGGCCGGGCCGGGGCCGGAAAGUAUUAUGUUACGCCGUUCGGAUCUGCACUUCC	0.0169
CCUCAAGUCCUGUGCUACACAUCGUAUGUACCGAAUCGGGAGGGAGGGAGGGGAAAGUAUUAUGUUACGCCGUUCGGAUCUGCACUUCCA	1.01
CCUGUGCUACACAUCGUAUGUACCGAAUCGGGGUUUUUUUGGGGUGGGGUUUUUUUGGGGAAAGUAUUAUGUUACGCCGUUCGGAUCUGC	0.515
CAAGUCCUGUGCUACACAUCGUAUGUACCGAAUCGGUUUGGUUUUUGGUUUUUGGAAAGUAUUAUGUUACGCCGUUCGGAUCUGCACUUC	-0.499
ACCAUGCAGGUGGGCAUCUUUGGGAAGUGGGGCAAGGGGGGGAUAGUGAGGGGGGUAACACUUUGGGAACAGGUGGUCCCAGGUCGUUUC	0.475
AAGUCCUGUGCUACACAUCGUAUGUACCGAAUCGGGAAAAGGGGAAAAGGAAAAGGGAAAGUAUUAUGUUACGCCGUUCGGAUCUGCACU	-0.171
UGGGAGGUGGAUUUUGUUUAUUUUUUUAGCUCAUUUCCAGGGGUGGGAAUUUUUUUUUAAUAUGUGUCAUGAAUAAAGUUGUUGUUGAAA	0.654
UUACUACCUCCGCCUUCAUUUCCGUCAGCAAUCCCGGCGCGGGCUCCCCGGCCCCCGCCAGCCCGCCUCCCCUCGCUGUGCCCGGGACCG	0.389

Set 4
SMILES: N#Cc1c(NC(=O)c2cccc3ccccc23)sc2c1CCCC2
Observed: enzyme activity
Mode: inhibitor
Concentration: 0.5 µM
Relative to: control
target	remaining activity [%]
TBK1 (Homo sapiens, UniProt Q9UHD2)	94
FGFR3 (Homo sapiens, UniProt P22607)	101
ACVR1B (Homo sapiens, UniProt P36896)	96.5
MAP2K2 (Homo sapiens, UniProt P36507)	106
LCK (Homo sapiens, UniProt P06239)	102
MERTK (Homo sapiens, UniProt Q12866)	97.9
MAPKAPK2 (Homo sapiens, UniProt P49137)	103
EPHA3 (Homo sapiens, UniProt P29320)	103
MAP3K5 (Homo sapiens, UniProt Q99683)	99
GRK7 (Homo sapiens, UniProt Q8WTQ7)	116
CSNK1G3 (Homo sapiens, UniProt Q9Y6M4)	104

Some of these lines once more (set 4):
target	remaining activity [%]
FGFR3 (Homo sapiens, UniProt P22607)	101
ACVR1B (Homo sapiens, UniProt P36896)	96.5
